# Measurements collected from several papers.
# Numbers after ± are the reported error.
# Chain of UniProt P35579 (whole entry, looked up): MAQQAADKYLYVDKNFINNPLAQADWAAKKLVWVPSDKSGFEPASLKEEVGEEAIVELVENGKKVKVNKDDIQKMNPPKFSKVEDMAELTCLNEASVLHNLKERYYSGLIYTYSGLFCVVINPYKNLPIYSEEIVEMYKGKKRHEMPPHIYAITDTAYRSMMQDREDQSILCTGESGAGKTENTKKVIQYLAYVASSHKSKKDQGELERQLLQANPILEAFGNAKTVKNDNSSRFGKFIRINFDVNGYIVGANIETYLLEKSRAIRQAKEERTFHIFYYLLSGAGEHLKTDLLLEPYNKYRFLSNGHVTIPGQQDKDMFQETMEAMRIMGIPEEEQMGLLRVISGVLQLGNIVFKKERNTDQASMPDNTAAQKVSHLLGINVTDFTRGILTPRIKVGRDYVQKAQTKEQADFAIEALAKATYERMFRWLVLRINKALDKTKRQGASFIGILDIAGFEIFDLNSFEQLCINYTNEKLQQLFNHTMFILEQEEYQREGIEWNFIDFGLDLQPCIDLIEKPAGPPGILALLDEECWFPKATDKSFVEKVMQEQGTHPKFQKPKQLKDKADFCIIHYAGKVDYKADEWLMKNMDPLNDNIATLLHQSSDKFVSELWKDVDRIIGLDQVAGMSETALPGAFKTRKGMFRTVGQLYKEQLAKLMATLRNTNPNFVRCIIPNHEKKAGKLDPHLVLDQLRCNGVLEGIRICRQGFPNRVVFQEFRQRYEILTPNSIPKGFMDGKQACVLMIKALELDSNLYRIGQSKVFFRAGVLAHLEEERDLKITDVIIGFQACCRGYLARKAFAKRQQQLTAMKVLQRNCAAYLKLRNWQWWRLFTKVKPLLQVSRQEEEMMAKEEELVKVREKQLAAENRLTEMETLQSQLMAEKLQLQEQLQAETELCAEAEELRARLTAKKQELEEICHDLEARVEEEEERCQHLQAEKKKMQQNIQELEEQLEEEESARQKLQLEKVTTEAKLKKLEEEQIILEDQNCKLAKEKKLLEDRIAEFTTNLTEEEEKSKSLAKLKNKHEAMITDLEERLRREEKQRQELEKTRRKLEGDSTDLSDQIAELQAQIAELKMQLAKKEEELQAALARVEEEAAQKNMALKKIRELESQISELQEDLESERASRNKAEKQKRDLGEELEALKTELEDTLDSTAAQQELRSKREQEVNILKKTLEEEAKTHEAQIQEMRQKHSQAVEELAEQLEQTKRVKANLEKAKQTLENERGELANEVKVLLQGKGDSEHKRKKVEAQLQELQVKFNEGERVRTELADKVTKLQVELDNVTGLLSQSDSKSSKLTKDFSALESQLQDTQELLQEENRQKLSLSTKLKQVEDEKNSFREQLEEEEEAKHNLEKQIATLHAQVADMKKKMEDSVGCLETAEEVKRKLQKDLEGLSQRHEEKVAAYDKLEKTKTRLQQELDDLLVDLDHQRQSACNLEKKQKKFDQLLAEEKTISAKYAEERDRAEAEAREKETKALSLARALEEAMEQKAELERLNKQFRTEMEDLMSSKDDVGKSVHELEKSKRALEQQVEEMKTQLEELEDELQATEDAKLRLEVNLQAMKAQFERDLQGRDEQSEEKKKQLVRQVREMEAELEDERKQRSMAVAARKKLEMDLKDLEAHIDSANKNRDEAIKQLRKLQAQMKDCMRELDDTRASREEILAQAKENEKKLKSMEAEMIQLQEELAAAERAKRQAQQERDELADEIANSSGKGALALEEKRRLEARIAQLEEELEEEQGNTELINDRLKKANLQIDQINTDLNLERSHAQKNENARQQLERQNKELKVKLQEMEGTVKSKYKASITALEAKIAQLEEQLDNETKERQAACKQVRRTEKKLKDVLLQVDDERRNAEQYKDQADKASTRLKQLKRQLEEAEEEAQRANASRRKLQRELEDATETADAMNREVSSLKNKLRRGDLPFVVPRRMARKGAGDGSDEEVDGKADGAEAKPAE
SMILES,target or system,test,system,setting,scale,measurement,value
O=c1cc(-c2ccc(O)c(O)c2)oc2cc(O)cc(O)c12,,,"Sprague-Dawley rat, male, obese, faeces","oral, 100 mg/kg neohesperidin, 36-48 h",,faecal excretion,18.3 ± 12.2 ng
CC(C)C[C@H](NC(=O)[C@H](CCCCN)NC(=O)OCC1c2ccccc2-c2ccccc21)C(=O)N[C@H](C(=O)N[C@@H](Cc1ccccc1)C(=O)N[C@@H](Cc1ccccc1)C(=O)N[C@@H](CCCCN)C(=O)NCC(=O)N[C@@H](Cc1ccccc1)C(=O)N[C@@H](C)C(=O)N[C@@H](Cc1c[nH]c2ccccc12)C(=O)N[C@@H](CC(N)=O)C(=O)N[C@H](C(=O)N[C@H]1CSSC[C@@H](C(=O)N[C@@H](Cc2c[nH]cn2)C(=O)N[C@@H](CCCNC(=N)N)C(=O)N[C@@H](CCCNC(=N)N)C(=O)N[C@@H](C)C(=O)N[C@@H](CC(N)=O)C(N)=O)NC(=O)[C@H](C(C)C)NC(=O)[C@H](CCCNC(=N)N)NC(=O)[C@H](C(C)C)NC(=O)CNC(=O)[C@H](CC(N)=O)NC(=O)[C@H](CCCNC(=N)N)NC(=O)[C@H](Cc2ccc(O)cc2)NC(=O)[C@H](C(C)C)NC1=O)C(C)C)C(C)C,,"circular dichroism, measured: antiparallel β-sheet",PBS,"80 µM, pH 7.4",,secondary structure content,40.5%
CCS(=O)(=O)Nc1ccc(Oc2ccc(F)cc2F)c(-c2cn(C)c(=O)c3[nH]ccc23)c1,,any AE leading to discontinuation,"human, relapsed/refractory AML","oral, dose not given",,treatment-emergent adverse events,32%
CN1CC[C@@H](c2c(O)cc(O)c3c(=O)cc(-c4ccc(C(F)(F)F)cc4Cl)oc23)[C@@H]1CO,,measured: Epistaxis,AML,"oral, 100 mg, intermittent dosing",,patients with adverse event,0%
Oc1ccc(CSCc2ccc(O)cc2)cc1,,,ICR mice male,"oral, 1500 mg/kg, day 1 before dosing, acute toxicity",,body weight,30.5 ± 0.98 g
[O-][S+]1CCc2nc(N3CCC(c4ncc(Cl)cn4)CC3)nc(NC3(CO)CCC3)c21 (centres unmarked),,"phase I trial, measured: gastrointestinal disorders",idiopathic pulmonary fibrosis patients,18 mg twice daily,,subjects with adverse events,80%
O=C(O)CCCOc1ccc(F)cc1-c1cc(-c2ccccc2C(F)(F)F)n(-c2ccccc2)n1,,,"male Crl:CD(SD) rats, salivary glands","intravenous, 25 µg/kg, 14 d",,relative organ weight,0.17 ± 0.02 g%
C=CC(=O)Nc1cc(Nc2nccc(Nc3cc(Cl)c(F)cc3C(C)(C)O)n2)c(OC)cc1N1CC[C@@H](N(C)C)C1,,,human,"oral, dose not given, phase I clinical",,patients with adverse event Nausea,33.3%
O=C(NCCCN1CCCCCC1)c1ccc2c(c1)sc1nc(-c3ccccc3)cn12,Vero-E6,CellTiter-Glo ATP,,"72 h, retest 8-point duplicates","relative to: DMSO 0%, hyamine -100%, more negative, more toxic",maximum response,-32.5%
C[C@H]1CN(c2n[nH]c3nc(N[C@H]4CC[C@H](NS(=O)(=O)CCC(F)(F)F)CC4)ncc23)CCO1,"Myosin-9 (MYH9, Homo sapiens, UniProt P35579)","inhibitor, Kinobeads competition profiling",,0.16 µM,relative to: vehicle,relative abundance,1.07
COc1ccc(-c2c(-c3ccc(C#N)c(F)c3)nc(N3CCC(N)CC3)n(C)c2=O)cc1F,,measured: Anemia,human patients,"oral, dose not given, dose escalation, NG",,serious adverse event incidence,0%
CCN(CCO)CCCC(C)Nc1ccnc2cc(Cl)ccc12 (centres unmarked),,measured: Hypokalemia grade 1,newly diagnosed glioblastoma patients,"oral, 400 mg/dose, with radiotherapy and temozolomide",,patients with adverse event,14%
CN(C)c1cccc(C(=O)NCC2CCN(c3cc(-c4ccc(Cl)cc4)n[nH]3)CC2)c1,Vero-E6,CellTiter-Glo ATP,,"72 h, second round 5-point","relative to: DMSO 0%, hyamine -100%, more negative, more toxic",maximum response,-25.4%
c1csc(CNc2cc[nH]n2)c1,,micronucleus,"CD-1 mouse Hsd:ICR(CD-1), male, bone marrow","oral, 125 mg/kg/day, 3 days",,micronucleated PCE per 1000 PCE,1.1
COc1ccc2nc3cc(Cl)ccc3c(Nc3cc(CN4CCCC4)c(O)c(CN4CCCC4)c3)c2n1,,,"mouse, blood","oral, 57 mg/kg, tolerability, mean",,mean corpuscular haemoglobin,14.7 pg
c1ccc2cc3c(ccc4ccccc43)cc2c1,,,pooled human liver microsomes,"2.5 µM, pH 7.4",,metabolism rate,21.6 pmol/min/mg
C[C@@H]1OC(=O)NN=C1c1ccc(-c2ccc(F)cc2)c(C(F)(F)F)c1,,"phase I trial, measured: alkaline phosphatase increased",human patients,"20 mg load, 1 mg daily, worst grade 1",,patients with TEAE,50%
CCC[C@@](N)(CO)CCc1ccc(OCCCCCC(C)C)cc1,,,C57BL/6 mice,"oral, 50 mg/kg",,Tmax,2 h
C[C@@H]1COCCN1c1cc(C2([S@](C)(=N)=O)CC2)nc(-c2cc[nH]c3nccc2-3)n1,,,"patients, advanced solid tumours","oral, 20 mg twice daily, 10 days, with: carboplatin",,discontinuation due to adverse event,2 % patients
CO[C@H]1C[C@@H]2CC[C@@H](C)[C@@](O)(O2)C(=O)C(=O)N2CCCC[C@H]2C(=O)O[C@H]([C@H](C)C[C@@H]2CC[C@@H](OC(=O)NCCOCCOCCOCCOCCOCCOCCOCCOCCC(=O)N3CCc4cc(Cn5nc(-c6ccc7oc(N)nc7c6)c6c(N)ncnc65)ccc4C3)[C@H](OC)C2)C[C@@H](O)[C@H](C)/C=C(\C)[C@@H](O)[C@@H](OC)C(=O)[C@H](C)C[C@H](C)/C=C/C=C/C=C/1C,,,patients with advanced solid tumours,"intravenous, 1.6 mg/3 mg weekly, any grade",,Fatigue AE leading to dose reduction,0%
COc1ccc([C@@H](O)c2cc(-c3ncnc4cc(N5CCOCC5)ccc34)c(F)cc2Cl)nn1,,,"patients, advanced solid tumours","oral, 200 mg twice daily, treatment-emergent, with: avelumab",relative to: patients,stomatitis incidence,10%
COc1cc2c(Oc3ccc4[nH]c(C)cc4c3F)ccnc2cc1OCC1(N)CC1,,,paediatric recurrent refractory sarcoma,12 mg,,grade 3 abdominal distension,0%
C1=Cc2nc1cc1ccc([n-]1)c(-c1ccccc1)c1nc(cc3ccc([n-]3)c2-c2ccccc2)C=C1.CC(=O)[O-].[Mn+3],,LC-MS/MS,"Sprague-Dawley rat, plasma","oral gavage, dose not given, 30 min, individual rat Rat2",,plasma concentration,26 ng/mL
O=C1Nc2cc3[nH]nc(-c4ccncc4)c3cc2CN1Cc1ccccc1,,CTCAE v4.03,advanced solid tumour patients,"intravenous, 9.6 mg/kg, schedules 1/2",,patients with headache,0%
CC1(C)[C@H](C=C(Cl)Cl)[C@H]1C(=O)OCc1cccc(Oc2ccccc2)c1,,measured: CYP2C9,"human, age 6 months, recombinant human CYP2C9",0.1 µM,,enzyme contribution to clearance,0.87%
CC(C)[C@@H]1NC(=O)CNC(=O)[C@H](CC(N)=O)NC(=O)[C@H](CCCNC(=N)N)NC(=O)[C@H](Cc2ccc(O)cc2)NC(=O)[C@H](C(C)C)NC(=O)[C@@H](NC(=O)[C@@H](NC(=O)[C@H](CC(N)=O)NC(=O)[C@H](Cc2c[nH]c3ccccc23)NC(=O)[C@H](C)NC(=O)[C@H](Cc2ccccc2)NC(=O)CN)C(C)C)CSSC[C@@H](C(=O)N[C@@H](Cc2cnc[nH]2)C(=O)N[C@@H](CCCNC(=N)N)C(=O)N[C@@H](CCCNC(=N)N)C(=O)N[C@@H](C)C(=O)N[C@@H](CC(N)=O)C(N)=O)NC(=O)[C@H](C(C)C)NC(=O)[C@H](CCCNC(=N)N)NC1=O,,,"ICR mouse, blood","intramammary, 10 mg/kg, day 5, 3 d dosing",,basophils,1.53 ± 0.15%
O=[N+]([O-])c1ccc2c(c1)S(=O)(=O)C=C2,,,"male C57BL/6 mice, blood","intraperitoneal, 20 mg/kg, day 8, group average",,mean corpuscular haemoglobin concentration,289 g/L
Cn1c(-c2ccc(C(N)=O)cc2F)nnc1C(C)(C)Oc1c(F)cc(Cl)cc1F,,,human,"oral, 60 mg, single ascending dose",,gastrointestinal disorder TEAE,0%
COC[C@@H](CC(C)C)NC(=O)c1ccc(C)c(C)c1,,,"Hsd:ICR (CD-1) mouse, male, bone marrow","oral, 500 mg/kg, 24 h",,micronucleated PCE per 1000 PCE,0.2
O=c1nc(NO)ccn1[C@@H]1O[C@H](CO)[C@@H](O)[C@H]1O,,,rat amniotic fluid dialysate,"25 ng/mL, more than 4 weeks, -20 °C, low concentration, with: molnupiravir 5 ng/mL",,long-term stability,102 ± 2.59%
C[C@]1(CO)Cc2ncn(-c3ccc(C#N)c(Cl)c3)c2C(=O)O1,,,"healthy Japanese adults, plasma","3 mg once daily, multiple dose",,Tmax at steady state,0.5 h
O=S(=O)(Nc1ccccc1)c1ccc(NC(=S)Nc2ccccc2)cc1,,,"female mice, thymus","oral, 20 mg/kg daily 14 days",relative to: body weight,relative organ weight,0.32%
CC(=O)c1c([O-])cc(C)oc1=O.[Na+],,,"Wistar rat, female, serum","oral, 200 mg/kg, no CYP inhibitor",,AUC(0-inf),4100 ± 244 µg·h/mL
COc1ccnc(C(=O)N[C@H]2COC(=O)[C@H](Cc3ccccc3)[C@@H](OC(=O)C(C)C)[C@H](C)OC2=O)c1OCOC(=O)C(C)C,,total length,"Pimephales promelas, flow-through water",32 days,,EC10,0.91 ng/mL
Nc1nc2cc(-c3ccc4ncc(C(=O)N5CCOCC5)n4c3)ccc2o1,,,"human, advanced solid tumours",once-daily schedule,,MTD,150 mg
O=[N+]([O-])c1cc2c3c(ccc2c2ccccc12)[C@@H](O)[C@H](O)C=C3,,,"female Sprague-Dawley rat, mammary gland","intramammary, dose not given, 32 wk, palpable mammary tumours at necropsy",,tumour incidence,46%
C=CC(=O)N1CC[C@H](n2nc(C#Cc3cc(OC)cc(OC)c3)c3c(N)ncnc32)C1,,,human patients,"oral, dose not given, QD regimen, adverse drug reaction, with: ferric citrate hydrate",,"ALT increased, any grade",100%
O=C(Nc1ccccc1)C1CCN(C(=O)Oc2cccnc2)CC1,,psychotropic effects VAS,healthy women,20 mg,"relative to: pre-dose baseline, direction not given",change in external perception score,0
Brc1ccc(Oc2cc(Br)c(Br)cc2Br)c(Br)c1,,ultrafiltration,cow milk whey,200 nM nominal in whole milk,,final permeate concentration,0.49 nM
COc1ccc(C[C@@H]2NC(=O)[C@H]([C@@H](C)O)NC(=O)[C@@H]3[C@@H]4CCN3C(=O)[C@@H]3Cc5cn(c6ccc(F)cc56)CCCCCCN(Cc5ccc(cc5)CCNC(=O)[C@]5(C)CCCN5C2=O)C(=O)CCC(=O)N[C@@H](C)C(=O)N[C@H](CNC(=O)CCCCC[N+](C)(C)C)C(=O)N[C@@H](Cc2cccc(c2)CNC(=O)CO4)C(=O)N3)cc1,,measured: Rhinitis,humans,"concentration not given, Study-001",,participants with adverse event,2%
CC(=O)c1c(C)c2cnc(Nc3ccc(C4CCN(CCS(C)(=O)=O)CC4)cn3)nc2n(C2CCCC2)c1=O,,,"human, plasma","oral, 100 mg, day 1 single dose",,MRT,12.1 h

# Repeated from above:
SMILES,target or system,test,system,setting,scale,measurement,value
CO[C@H]1C[C@@H]2CC[C@@H](C)[C@@](O)(O2)C(=O)C(=O)N2CCCC[C@H]2C(=O)O[C@H]([C@H](C)C[C@@H]2CC[C@@H](OC(=O)NCCOCCOCCOCCOCCOCCOCCOCCOCCC(=O)N3CCc4cc(Cn5nc(-c6ccc7oc(N)nc7c6)c6c(N)ncnc65)ccc4C3)[C@H](OC)C2)C[C@@H](O)[C@H](C)/C=C(\C)[C@@H](O)[C@@H](OC)C(=O)[C@H](C)C[C@H](C)/C=C/C=C/C=C/1C,,,patients with advanced solid tumours,"intravenous, 1.6 mg/3 mg weekly, any grade",,Fatigue AE leading to dose reduction,0%
COc1ccc([C@@H](O)c2cc(-c3ncnc4cc(N5CCOCC5)ccc34)c(F)cc2Cl)nn1,,,"patients, advanced solid tumours","oral, 200 mg twice daily, treatment-emergent, with: avelumab",relative to: patients,stomatitis incidence,10%
COc1cc2c(Oc3ccc4[nH]c(C)cc4c3F)ccnc2cc1OCC1(N)CC1,,,paediatric recurrent refractory sarcoma,12 mg,,grade 3 abdominal distension,0%
